Measured values of several laboratories.
Protocols differ between the studies behind these lines.
Target: Serine/threonine-protein kinase LATS1 (LATS1, Homo sapiens, UniProt O95835)

SMILES	test	setting	how to read	quantity	result
COc1cc(Nc2nc(C)cc(-c3cnn4nc(OC)ccc34)n2)cc(C(F)(F)F)c1	inhibitor	1 µM	relative to: control	remaining activity	100%
NC(=O)C[C@H]1CCc2sc3ncnc(O[C@H]4CC[C@H](N5CCOCC5)CC4)c3c21	enzyme activity, inhibitor	10 µM		inhibition	4%
Cc1ccc(-c2c(/C=C(\C#N)C(=O)NC(C)C)n(CCCO)c3ncnc(N)c23)cc1	cell-free assay, competition with immobilised ligand	1 µM		remaining binding	90%
COc1cc(Nc2nccc(-c3cnn4nc(OC)ccc34)n2)cc(C(F)(F)F)c1	binding, competition with immobilised ligand	1 µM		remaining binding	71%
NC(=O)[C@@H](O)C[C@H]1CCc2sc3ncnc(O[C@H]4CC[C@H](N5CCOCC5)CC4)c3c21	enzyme activity, inhibitor	10 µM		inhibition	4%
CNC(=O)C1CCN(c2cc(C)c(F)cc2NC(=O)c2ccc(-c3cc(O)ccc3C)c(C)c2)CC1	binding, competition with immobilised ligand	1 µM		remaining binding	95%
COc1c(Cl)cccc1Nc1c(-c2ccncc2C#C[C@@]2(C)CCCN2C(=O)/C=C/CN(C)C)[nH]c2c1C(=O)NCC2	binding, competition with immobilised ligand	3 µM		remaining binding	100%
CN1CCN(Cc2ccc(-c3ccc(CO[C@H]4CCC[C@@H]4NC(=O)c4cc(-c5cnn(C)c5)cnc4N)cc3)cc2)CC1	enzyme activity, inhibitor	0.1 µM		inhibition	17%
C=CC(=O)N1CCc2ccc(-n3c(=O)ccc4cnc5ccc(-c6cnn(C)c6)cc5c43)cc21	KINOMEscan	1 µM	relative to: DMSO control	remaining binding	100%
C=CC(=O)N1CCCC(n2c(=O)c3ncccc3n(Cc3ccc(Oc4ccccc4)cc3)c2=O)C1 (stereo not shown)	cell-free assay, competition with immobilised ligand	1 µM		remaining binding	100%
Cc1cnc2nc1Nc1cccc(c1)COC/C=C/COCc1cc(ccc1OCCN1CCOCC1)N2	binding	0.1 µM		remaining binding	100%
CC(C)=CC1OC(C)(C)C2C=C3C(=O)C(Cl)=CC(O)C3C3C(O)C4OC4C(=O)C132 (stereo not shown)	cell-free assay, competition with immobilised ligand	10 µM		remaining binding	100%
Nc1ncc2c(n1)-c1c([nH]c3ccc(C4=CCOCC4)cc13)CCC2	binding, competition with immobilised ligand	1 µM		remaining binding	79%
CCN1CCN(Cc2ccc(C(=O)Nc3ccc(C)c(NCc4cnc5[nH]ccc5c4OC)c3)cc2C(F)(F)F)CC1	binding, competition with immobilised ligand	1 µM		remaining binding	100%
Cc1cccc(O[C@H]2CCC[C@@H](C(C)CNCc3ccncc3)C2)c1 (relative stereo)	enzyme activity, inhibitor	10 µM		inhibition	-3%
O=C(Cc1ccc(OCc2ccccc2)cc1)NC1(C(=O)O)CCN(C(=O)c2ccc(-c3cccc(Cl)c3)cc2)CC1	enzyme activity, inhibitor	10 µM		activity vs control	126%
CNC1C[S+]2CC[S+]3CC[S+](C1)[Ru-4]321([N]=C=S)[n]2c3ccc(OC)cc3c3c4c(c5cc(F)c[n+]1c5c32)C(=O)NC4=O (stereo not shown)	KinomeScan	0.1 µM	relative to: untreated	remaining binding	89%
Nc1ncc(-c2cc(-c3cnn(CC(F)(F)F)c3)ncc2F)nc1C(=O)NC1CNCC(F)C1 (stereo not shown)	enzyme activity	1 µM	relative to: DMSO control	remaining activity	93.9%
CCn1cc(C(=O)O)c(=O)c2c(N)c(F)c(NC3CCCCC3)cc21	kinase activity	0.1 µM, together with: ATP at Km		inhibition	-14.9%

For quick reference, copied from above:
SMILES	test	setting	how to read	quantity	result
Cc1cnc2nc1Nc1cccc(c1)COC/C=C/COCc1cc(ccc1OCCN1CCOCC1)N2	binding	0.1 µM		remaining binding	100%
CC(C)=CC1OC(C)(C)C2C=C3C(=O)C(Cl)=CC(O)C3C3C(O)C4OC4C(=O)C132 (stereo not shown)	cell-free assay, competition with immobilised ligand	10 µM		remaining binding	100%
Nc1ncc2c(n1)-c1c([nH]c3ccc(C4=CCOCC4)cc13)CCC2	binding, competition with immobilised ligand	1 µM		remaining binding	79%
